Measured values of several laboratories.
Parts stem from different laboratories: compare values within a part only. Substitutions count along the parent as printed.

Block 1
Target: Sal-like protein 4, full length isoform A (SALL4, Homo sapiens, UniProt Q9UJQ4, residues 1-1053)
UniProt Q9UJQ4, sequence (whole entry, looked up): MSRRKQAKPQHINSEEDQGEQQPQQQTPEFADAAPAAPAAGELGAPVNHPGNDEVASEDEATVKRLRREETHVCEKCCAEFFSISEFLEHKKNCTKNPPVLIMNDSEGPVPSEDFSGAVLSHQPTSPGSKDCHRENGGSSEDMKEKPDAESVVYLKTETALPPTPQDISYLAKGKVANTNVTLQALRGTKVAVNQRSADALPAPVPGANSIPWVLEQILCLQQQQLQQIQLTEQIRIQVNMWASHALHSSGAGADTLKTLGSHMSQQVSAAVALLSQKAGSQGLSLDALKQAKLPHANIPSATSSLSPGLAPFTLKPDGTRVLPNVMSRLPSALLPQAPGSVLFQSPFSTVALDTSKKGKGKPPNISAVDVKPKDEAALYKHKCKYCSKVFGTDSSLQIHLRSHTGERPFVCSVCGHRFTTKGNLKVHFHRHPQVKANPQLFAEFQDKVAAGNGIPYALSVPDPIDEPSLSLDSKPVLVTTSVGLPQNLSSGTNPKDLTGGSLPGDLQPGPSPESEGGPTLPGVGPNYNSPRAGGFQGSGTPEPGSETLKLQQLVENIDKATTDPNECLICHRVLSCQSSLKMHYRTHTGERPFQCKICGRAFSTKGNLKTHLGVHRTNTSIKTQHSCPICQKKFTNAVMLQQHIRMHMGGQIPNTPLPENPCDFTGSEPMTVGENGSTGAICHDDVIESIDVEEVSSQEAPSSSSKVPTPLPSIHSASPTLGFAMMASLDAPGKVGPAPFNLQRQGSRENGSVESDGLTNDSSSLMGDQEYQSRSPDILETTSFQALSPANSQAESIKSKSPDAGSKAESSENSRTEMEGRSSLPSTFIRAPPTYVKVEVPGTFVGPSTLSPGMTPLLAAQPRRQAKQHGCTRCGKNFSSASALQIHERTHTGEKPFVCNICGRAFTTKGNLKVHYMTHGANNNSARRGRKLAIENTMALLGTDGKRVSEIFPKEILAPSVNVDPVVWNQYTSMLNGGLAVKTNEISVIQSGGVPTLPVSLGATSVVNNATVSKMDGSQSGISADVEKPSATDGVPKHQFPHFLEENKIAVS
Method: universal PBM
Form: double-stranded DNA, one strand shown
Sample: in vitro
Tested at: 600 nM
Setting: 8-mer, flanks averaged, mean of replicates
Direction: higher = stronger binding
| Oligonucleotide | E-score |
| --- | --- |
| TTCAGAAA | 0.0837 |
| ACTCGAAA | 0.0265 |
| ATACTGCG | -0.0198 |
| AGCCACTC | -0.1 |
| CAATGCCG | -0.134 |
| GACAGCAC | -0.136 |
| ACTGCCAC | -0.19 |
| CACCTACG | -0.178 |
| ACGCTTTG | -0.0512 |
| CCTACCCG | -0.292 |
| GCTCCTTA | -0.0767 |
| CGAGGCTC | -0.253 |
| ACGGTGTG | -0.151 |
| AACTGGGT | -0.125 |
| AACTGGTG | -0.151 |
| AGCCTTCC | -0.147 |
| AACGTGGG | -0.144 |
| AAAAATAC | 0.282 |
| TCCATGAA | 0.248 |
| ACGGTCGA | -0.111 |
| ACCTTATG | 0.228 |
| AGCTCCCG | -0.358 |
| CCCTCCGA | -0.341 |
| CGCTTAAA | 0.0868 |
| GCACGCTA | -0.157 |

Block 2
Target: TAR DNA-binding protein 43, full length, His tag (TARDBP, Homo sapiens, UniProt Q13148, residues 1-414)
Method: RNA Bind-n-Seq
Form: RNA
Sample: in vitro
Tested at: 20 nM
Setting: 6-mer, flanks averaged, single round
With: 150 mM KCl
Reference: input library
Direction: higher = stronger binding
| Oligonucleotide | 6-mer enrichment (R) |
| --- | --- |
| UGCUAA | 0.648 |
| AAACAU | 0.6 |
| UCCCCU | 0.672 |
| GUCUCC | 0.643 |
| UCUCGU | 0.574 |
| ACCUCU | 0.579 |
| GGAUUU | 0.787 |
| GUCCAU | 0.652 |
| CAACUA | 0.61 |
| GACAGA | 0.964 |
| UGAAAC | 0.647 |
| GCAGGG | 4.52 |
| UAAGAA | 0.912 |
| AUCCCC | 0.639 |
| GGCGUU | 1.3 |
| UCAUGG | 0.906 |
| GGGAUG | 4.06 |
| AGACGG | 1.65 |

Block 3
Target: CCND3, cyclin fold, Cln2 fusion (human)
Method: yeast growth competition, sequencing
Sample: yeast
Setting: weak parent motif
Reference: not given
Direction: higher = stronger binding
Parent: RBL1 docking peptide (human); GSAKRRLFGEDPP
| Substitution | normalised enrichment score |
| --- | --- |
| GSAKRRLFGEEPP [D11E] | 0.208 |
| GSAKRRLFGDDPP [E10D] | 0.143 |
| GSAARRLFGEDPP [K4A] | 0.193 |
| FSAKRRLFGEDPP [G1F] | 0.214 |
| GSAKRRLAGEDPP [F8A] | 0.119 |
| GSAKYRLFGEDPP [R5Y] | 0.125 |
| ESAKRRLFGEDPP [G1E] | 0.101 |
| GSAKRSLFGEDPP [R6S] | 0.149 |
| GSYKRRLFGEDPP [A3Y] | 0.113 |
| GSCKRRLFGEDPP [A3C] | 0.137 |
| PSAKRRLFGEDPP [G1P] | 0.0602 |
| GSAKRRLPGEDPP [F8P] | 0.188 |
| GSAKRMLFGEDPP [R6M] | 0.141 |
| GSAKRGLFGEDPP [R6G] | 0.0139 |
| SSAKRRLFGEDPP [G1S] | 0.212 |
| GSAKRPLFGEDPP [R6P] | 0.261 |
| GSAKRRLFGIDPP [E10I] | 0.105 |
| GSAKRRLFGEDPK [P13K] | 0.0473 |
| GVAKRRLFGEDPP [S2V] | 0.0938 |

Block 4
Target: Prothrombin, mature alpha-thrombin (F2, Homo sapiens, UniProt P00734)
Method: aptamer microarray, sandwich
Form: DNA with 2'F-ANA
Sample: in vitro
Tested at: 200 nM
Setting: whole 15-mer aptamer, many near background
With: Cy3 exosite-II aptamer, 400 nM
Direction: higher = stronger binding
Oligonucleotide: GGTTGGTGTGGTTGG
| Modification | mean fluorescence intensity [a.u.] |
| --- | --- |
| 2'F-ANA at 1 5 6 10 11 15 | 49.3 |
| 2'F-ANA at 5 6 7 9 10 11 12 13 14 | 49.5 |
| 2'F-ANA at 1 2 3 4 5 7 9 10 12 13 | 47.6 |
| 2'F-ANA at 4 5 9 10 13 | 45.1 |
| 2'F-ANA at 4 7 8 9 15 | 351 |
| 2'F-ANA at 2 5 9 10 12 15 | 49.1 |
| 2'F-ANA at 1 3 5 6 8 9 10 12 13 14 15 | 46.6 |
| 2'F-ANA at 1 3 5 6 7 10 12 15 | 49.5 |
| 2'F-ANA at 1 3 6 9 15 | 272 |
| 2'F-ANA at 2 3 7 8 9 10 11 12 14 15 | 238 |
| 2'F-ANA at 1 3 7 10 11 12 | 110 |
| 2'F-ANA at 1 2 4 5 6 7 8 10 12 13 14 | 49.3 |
| 2'F-ANA at 3 5 10 11 13 15 | 65 |
| 2'F-ANA at 1 2 8 12 13 14 15 | 71.7 |
| 2'F-ANA at 2 5 6 7 9 10 11 12 13 | 53.3 |
| 2'F-ANA at 1 2 3 4 5 8 10 13 14 15 | 137 |
| 2'F-ANA at 1 3 4 6 7 11 12 | 299 |
| 2'F-ANA at 3 5 6 13 15 | 73.2 |
| 2'F-ANA at 1 3 4 8 9 10 11 12 13 | 85 |
| 2'F-ANA at 2 10 12 13 14 | 137 |
| 2'F-ANA at 4 5 10 11 15 | 46.9 |
| 2'F-ANA at 1 2 4 5 9 11 12 13 14 | 48.5 |
| 2'F-ANA at 1 7 8 10 11 13 15 | 57.8 |
| 2'F-ANA at 1 2 3 7 9 13 | 157 |
| 2'F-ANA at 3 7 11 | 1190 |

Block 5
Target: Fragile X messenger ribonucleoprotein 1, C-terminal low-complexity region (Fmr1, Mus musculus, UniProt P35922)
Method: RNA Bind-n-Seq
Form: RNA
Sample: in vitro
Tested at: 200 nM
Setting: whole 134-nt RNA, ends assumed
With: 150 mM LiCl
Reference: input library
Direction: higher = stronger binding
All molecules: 7-deaza-guanosine replaces G
Shared flanks, not repeated: GGGAGUUCUACAGUCCGACGAUC … UGGAAUUCUCGGGUGUCAAGG
| Oligonucleotide | log2 enrichment |
| --- | --- |
| GCAGGAAGUAAAAACAAAUGGAAAUGCUUCAAAUAGUGGCAGGGGUGGGGGUUGCUAAGGAAAGGGUGGGAUGGGAGUGGGUAAAGAGUU | 1.28 |
| ACCAUGCAUGUGGGCAUCUUUGGGAAGUGGGGCAAGGGGGGGAUAGGGAGGGGGGUAACACUUUGGGAACAGGUGGUCCCAGGUCGUUUC | 1.29 |
| CUCAAGUCCUGUGCUACACAUCGUAUGUACCGAAUCGGAAGGGAAGGGAAGGGGAAAGUAUUAUGUUACGCCGUUCGGAUCUGCACUUCC | -0.0214 |
| AGUCCUGUGCUACACAUCGUAUGUACCGAAUCAAACCCCCCCAAACCCAAAUUUAAAAAAGUAUUAUGUUACGCCGUUCGGAUCUGCACU | 1 |
| CAAGUCCUGUGCUACACAUCGUAUGUACCGAAUCGGGUUUGGUUUGGGGUUUGGGGAAAGUAUUAUGUUACGCCGUUCGGAUCUGCACUU | -1.87 |
| UCCUGUGCUACACAUCGUAUGUACCGAAUCGGGGUUUUUUUGGGGUGGGGUUUUUGGGGAAAGUAUUAUGUUACGCCGUUCGGAUCUGCA | -1.53 |
| ACCAUGCAGGUGGGCAUCUUUGGGAAGUGGGGCAACGGGGGGAUAGGGAGGGGGGUAACACUUUGGGAACAGGUGGUCCCAGGUCGUUUC | 0.898 |
| CUGUGCUACACAUCGUAUGUACCGAAUCGGUUUUUUUGGGUUUUUUUGGGGUUUUUUUGGGGAAAGUAUUAUGUUACGCCGUUCGGAUCU | 1.37 |
| UCCUGUGCUACACAUCGUAUGUACCGAAUCGGGUUUUUUUGGGUUUGGGUUUUUUUGGGAAAGUAUUAUGUUACGCCGUUCGGAUCUGCA | -0.507 |
| GUCCUGUGCUACACAUCGUAUGUACCGAAUCGGGGAAAAAAAGGGGAGGGGUUUGGGGAAAGUAUUAUGUUACGCCGUUCGGAUCUGCAC | -0.491 |
| UGGCCCUGGUGGCAUGCGGGGAGGAAGAGGUAGCCUCAUGGAUCGUGGUGGUCCCGGUGGAAUGUUCAGAGGUGGCCGUGGUGGAGACAG | -0.119 |

Block 6
Target: Histone acetyltransferase KAT6A, winged helix 1, GST fusion (KAT6A, Homo sapiens, UniProt Q92794, residues 1-85)
Method: protein binding microarray
Form: double-stranded DNA, one strand shown
Sample: in vitro
Tested at: not given
Setting: 8-mer, flanks averaged, mean of 2 arrays, mostly near background
Reference: not given
Direction: higher = stronger binding
Target sequence (chain): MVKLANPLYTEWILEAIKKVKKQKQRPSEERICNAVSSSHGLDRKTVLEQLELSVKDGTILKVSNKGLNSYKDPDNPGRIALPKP
| Oligonucleotide | E-score |
| --- | --- |
| AGTATGTG | -0.206 |
| ATCTATCG | -0.0923 |
| TCCATACA | -0.162 |
| ACGATCGA | -0.113 |
| AGCAGGCA | -0.0698 |
| GGTCTGAA | -0.146 |
| AGTTGATC | -0.146 |
| CTACATCC | -0.0158 |
| AAGTGTCC | 0.0653 |
| TCAGAACA | -0.121 |
| ACGCGACG | 0.371 |
| ATGCTTTG | -0.06 |
| AGCCAGCG | 0.0998 |
| ACTGAACG | 0.0316 |
| GACGGCAA | 0.355 |
| GTCTATCA | -0.0978 |
| CGGCTAGA | 0.171 |
| AATTCCTA | -0.171 |

Some of these lines once more (block 3):
| Substitution | normalised enrichment score |
| --- | --- |
| PSAKRRLFGEDPP [G1P] | 0.0602 |
| GSAKRMLFGEDPP [R6M] | 0.141 |
| GSAKYRLFGEDPP [R5Y] | 0.125 |
| FSAKRRLFGEDPP [G1F] | 0.214 |
| GSAKRRLFGEDPK [P13K] | 0.0473 |
| GSAKRRLFGIDPP [E10I] | 0.105 |
| GSAKRRLFGDDPP [E10D] | 0.143 |
| GSYKRRLFGEDPP [A3Y] | 0.113 |
| GSAKRRLFGEEPP [D11E] | 0.208 |
| SSAKRRLFGEDPP [G1S] | 0.212 |
| ESAKRRLFGEDPP [G1E] | 0.101 |
